Measured values gathered from unrelated publications.
Parts stem from different laboratories: compare values within a part only.
Chain of UniProt Q14012 (whole entry, looked up): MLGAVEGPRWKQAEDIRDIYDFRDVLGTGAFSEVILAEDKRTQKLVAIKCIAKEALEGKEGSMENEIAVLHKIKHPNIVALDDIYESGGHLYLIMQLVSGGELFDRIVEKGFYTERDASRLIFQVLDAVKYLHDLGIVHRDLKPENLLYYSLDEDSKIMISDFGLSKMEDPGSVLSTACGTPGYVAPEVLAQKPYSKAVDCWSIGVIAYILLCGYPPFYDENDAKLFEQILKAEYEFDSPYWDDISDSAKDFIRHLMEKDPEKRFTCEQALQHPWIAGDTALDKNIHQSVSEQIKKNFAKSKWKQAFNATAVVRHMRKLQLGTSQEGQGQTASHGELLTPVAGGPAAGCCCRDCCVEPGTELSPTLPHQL
Chain of UniProt P49841 (whole entry, looked up): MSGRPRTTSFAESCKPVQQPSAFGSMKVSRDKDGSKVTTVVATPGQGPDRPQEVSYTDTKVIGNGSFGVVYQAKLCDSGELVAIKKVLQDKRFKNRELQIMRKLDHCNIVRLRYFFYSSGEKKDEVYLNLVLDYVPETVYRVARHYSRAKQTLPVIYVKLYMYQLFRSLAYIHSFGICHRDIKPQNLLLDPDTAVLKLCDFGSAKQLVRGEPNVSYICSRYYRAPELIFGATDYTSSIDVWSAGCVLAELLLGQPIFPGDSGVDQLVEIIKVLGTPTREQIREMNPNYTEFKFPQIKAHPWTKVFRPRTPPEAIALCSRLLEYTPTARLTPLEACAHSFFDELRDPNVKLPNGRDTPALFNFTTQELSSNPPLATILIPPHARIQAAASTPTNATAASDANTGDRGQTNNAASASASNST
Chain of UniProt Q16584 (whole entry, looked up): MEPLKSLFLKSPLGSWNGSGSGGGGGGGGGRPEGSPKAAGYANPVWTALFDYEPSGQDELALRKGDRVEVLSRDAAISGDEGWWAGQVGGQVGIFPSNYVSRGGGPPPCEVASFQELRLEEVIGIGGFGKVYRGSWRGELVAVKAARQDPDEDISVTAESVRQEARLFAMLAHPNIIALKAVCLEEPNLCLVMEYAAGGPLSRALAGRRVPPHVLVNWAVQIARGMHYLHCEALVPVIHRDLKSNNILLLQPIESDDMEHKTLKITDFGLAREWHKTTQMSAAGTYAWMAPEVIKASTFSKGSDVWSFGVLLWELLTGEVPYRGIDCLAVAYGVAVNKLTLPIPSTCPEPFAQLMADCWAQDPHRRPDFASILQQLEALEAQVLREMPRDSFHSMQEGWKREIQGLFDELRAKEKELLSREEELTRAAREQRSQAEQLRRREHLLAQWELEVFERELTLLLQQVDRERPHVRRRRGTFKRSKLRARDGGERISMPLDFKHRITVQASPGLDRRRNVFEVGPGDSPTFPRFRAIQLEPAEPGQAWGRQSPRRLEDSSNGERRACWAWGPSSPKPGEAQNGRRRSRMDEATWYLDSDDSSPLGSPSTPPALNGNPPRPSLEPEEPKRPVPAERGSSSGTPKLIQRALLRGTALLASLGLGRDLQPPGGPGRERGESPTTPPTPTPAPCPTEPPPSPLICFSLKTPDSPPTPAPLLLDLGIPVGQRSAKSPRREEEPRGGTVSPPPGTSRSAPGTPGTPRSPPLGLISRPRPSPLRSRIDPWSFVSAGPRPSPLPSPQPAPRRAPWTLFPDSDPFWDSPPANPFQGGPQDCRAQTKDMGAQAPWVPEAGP
Chain of UniProt Q9H0K1 (whole entry, looked up): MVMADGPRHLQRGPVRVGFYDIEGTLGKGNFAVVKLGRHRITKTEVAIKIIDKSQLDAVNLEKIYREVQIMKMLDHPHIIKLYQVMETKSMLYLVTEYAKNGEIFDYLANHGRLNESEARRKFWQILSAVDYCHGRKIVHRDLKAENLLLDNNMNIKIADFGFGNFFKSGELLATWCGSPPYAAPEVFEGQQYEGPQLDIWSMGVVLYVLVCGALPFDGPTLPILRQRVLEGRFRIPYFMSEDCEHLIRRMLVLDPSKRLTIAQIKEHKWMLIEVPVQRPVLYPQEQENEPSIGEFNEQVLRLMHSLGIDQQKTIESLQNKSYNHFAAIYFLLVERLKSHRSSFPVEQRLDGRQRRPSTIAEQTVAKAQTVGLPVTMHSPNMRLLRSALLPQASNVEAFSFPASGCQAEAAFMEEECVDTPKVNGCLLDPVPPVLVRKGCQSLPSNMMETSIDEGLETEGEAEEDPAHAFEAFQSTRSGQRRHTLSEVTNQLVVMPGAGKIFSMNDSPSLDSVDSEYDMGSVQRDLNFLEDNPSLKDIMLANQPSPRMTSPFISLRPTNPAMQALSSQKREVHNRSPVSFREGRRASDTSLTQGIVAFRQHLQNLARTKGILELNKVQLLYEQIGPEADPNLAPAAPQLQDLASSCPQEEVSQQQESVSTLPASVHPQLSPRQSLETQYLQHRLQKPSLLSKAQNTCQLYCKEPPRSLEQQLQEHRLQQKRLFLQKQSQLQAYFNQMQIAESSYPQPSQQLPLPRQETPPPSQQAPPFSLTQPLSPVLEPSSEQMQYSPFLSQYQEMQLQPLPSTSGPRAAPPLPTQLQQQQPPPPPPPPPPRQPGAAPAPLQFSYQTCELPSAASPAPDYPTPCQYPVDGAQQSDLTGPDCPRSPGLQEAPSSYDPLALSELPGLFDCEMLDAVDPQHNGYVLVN
Chain of UniProt Q8IU85 (whole entry, looked up): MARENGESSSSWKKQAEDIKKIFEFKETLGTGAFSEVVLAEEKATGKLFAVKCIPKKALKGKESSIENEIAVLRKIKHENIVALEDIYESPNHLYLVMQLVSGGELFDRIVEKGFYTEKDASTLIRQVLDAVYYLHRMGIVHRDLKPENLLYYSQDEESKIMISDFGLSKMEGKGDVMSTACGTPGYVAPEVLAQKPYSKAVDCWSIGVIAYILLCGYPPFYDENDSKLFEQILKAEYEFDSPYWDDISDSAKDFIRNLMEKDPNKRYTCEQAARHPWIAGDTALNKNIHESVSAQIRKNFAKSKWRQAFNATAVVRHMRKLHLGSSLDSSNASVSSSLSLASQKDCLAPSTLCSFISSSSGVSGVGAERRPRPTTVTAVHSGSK
Chain of UniProt P49759 (whole entry, looked up): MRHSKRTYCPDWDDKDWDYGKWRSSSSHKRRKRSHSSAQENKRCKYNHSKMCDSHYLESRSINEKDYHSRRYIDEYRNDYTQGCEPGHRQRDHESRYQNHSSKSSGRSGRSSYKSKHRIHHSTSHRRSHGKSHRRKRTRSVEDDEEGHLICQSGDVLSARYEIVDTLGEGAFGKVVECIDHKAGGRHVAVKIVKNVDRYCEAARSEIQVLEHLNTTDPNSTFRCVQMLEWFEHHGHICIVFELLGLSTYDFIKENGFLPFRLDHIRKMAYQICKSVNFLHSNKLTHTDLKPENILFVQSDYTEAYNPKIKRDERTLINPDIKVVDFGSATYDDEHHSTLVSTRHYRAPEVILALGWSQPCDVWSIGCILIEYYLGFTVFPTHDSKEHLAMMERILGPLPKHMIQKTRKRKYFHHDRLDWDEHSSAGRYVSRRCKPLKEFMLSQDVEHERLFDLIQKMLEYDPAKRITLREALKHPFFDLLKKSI
Chain of UniProt P53667 (whole entry, looked up): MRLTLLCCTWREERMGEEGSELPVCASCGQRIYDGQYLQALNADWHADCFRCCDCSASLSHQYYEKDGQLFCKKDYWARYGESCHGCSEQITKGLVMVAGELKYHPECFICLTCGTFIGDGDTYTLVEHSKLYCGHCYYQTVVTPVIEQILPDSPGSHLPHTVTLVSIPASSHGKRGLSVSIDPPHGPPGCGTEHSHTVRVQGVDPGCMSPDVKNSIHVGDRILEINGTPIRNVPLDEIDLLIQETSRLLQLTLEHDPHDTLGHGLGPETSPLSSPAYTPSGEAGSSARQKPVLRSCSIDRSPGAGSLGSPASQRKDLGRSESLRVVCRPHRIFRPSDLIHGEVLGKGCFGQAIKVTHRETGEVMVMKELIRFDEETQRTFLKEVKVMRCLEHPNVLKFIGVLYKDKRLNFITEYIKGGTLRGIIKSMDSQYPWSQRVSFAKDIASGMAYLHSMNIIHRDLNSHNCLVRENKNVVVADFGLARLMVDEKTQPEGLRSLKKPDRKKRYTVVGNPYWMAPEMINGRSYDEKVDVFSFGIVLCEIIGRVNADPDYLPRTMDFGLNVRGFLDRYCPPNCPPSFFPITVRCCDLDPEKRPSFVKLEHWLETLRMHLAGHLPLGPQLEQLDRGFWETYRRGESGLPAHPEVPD
Chain of UniProt O14730 (whole entry, looked up): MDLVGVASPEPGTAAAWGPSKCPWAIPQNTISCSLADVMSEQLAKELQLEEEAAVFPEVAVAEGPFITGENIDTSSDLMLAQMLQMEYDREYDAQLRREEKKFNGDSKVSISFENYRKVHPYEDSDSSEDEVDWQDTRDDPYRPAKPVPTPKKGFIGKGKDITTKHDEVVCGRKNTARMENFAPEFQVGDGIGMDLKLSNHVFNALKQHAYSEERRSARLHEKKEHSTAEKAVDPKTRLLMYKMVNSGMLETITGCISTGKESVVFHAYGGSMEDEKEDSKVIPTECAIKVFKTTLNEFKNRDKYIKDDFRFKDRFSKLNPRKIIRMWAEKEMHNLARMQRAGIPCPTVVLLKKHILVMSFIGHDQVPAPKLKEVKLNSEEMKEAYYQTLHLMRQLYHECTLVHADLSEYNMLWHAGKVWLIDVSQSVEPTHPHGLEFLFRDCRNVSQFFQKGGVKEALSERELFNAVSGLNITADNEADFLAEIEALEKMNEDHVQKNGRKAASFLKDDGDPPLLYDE
Chain of UniProt P49674 (whole entry, looked up): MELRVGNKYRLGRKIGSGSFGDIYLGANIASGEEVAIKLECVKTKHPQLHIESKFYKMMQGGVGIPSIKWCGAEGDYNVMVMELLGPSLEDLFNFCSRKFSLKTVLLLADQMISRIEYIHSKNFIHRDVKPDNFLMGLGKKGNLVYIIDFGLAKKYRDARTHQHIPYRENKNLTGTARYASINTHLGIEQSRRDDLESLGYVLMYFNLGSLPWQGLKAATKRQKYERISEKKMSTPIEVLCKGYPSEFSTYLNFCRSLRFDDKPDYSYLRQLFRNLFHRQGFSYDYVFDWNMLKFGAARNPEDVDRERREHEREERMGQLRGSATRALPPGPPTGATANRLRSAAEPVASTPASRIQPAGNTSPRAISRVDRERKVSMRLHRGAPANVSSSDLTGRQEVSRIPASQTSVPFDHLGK

Series 1 — cell line: A-375; concentration: 100 µM; time: 36 h
Structure (SMILES) | viability [%]
Nc1c2c(nc3ccccc13)CCCC2 | 58.2
COc1ccc2cccc(CCNC(C)=O)c2c1 | 82.3
COc1ccc([C@@H]2CC(=O)c3c(O)cc(O[C@@H]4O[C@H](CO[C@@H]5O[C@@H](C)[C@H](O)[C@@H](O)[C@H]5O)[C@@H](O)[C@H](O)[C@H]4O)cc3O2)cc1OC | 121
Cc1ncc([N+](=O)[O-])n1CCO | 79.4
Clc1cccc(Cl)c1N=C1NCCN1 | 112
CC(C)N1CCN(c2ccc(OC[C@H]3CO[C@](Cn4cncn4)(c4ccc(Cl)cc4Cl)O3)cc2)CC1 (racemic) | 0.122
Cc1ccc([C@@H]2O[C@H](CO)[C@@H](O)[C@H](O)[C@H]2O)cc1Cc1ccc(-c2ccc(F)cc2)s1 | 1.05
CNC(=C[N+](=O)[O-])NCCSCc1csc(CN(C)C)n1 | 108
COC(=O)CCc1ccc(OCC(O)CNC(C)C)cc1 (stereo not shown) | 98
CO[C@H]1/C=C/O[C@@]2(C)Oc3c(C)c(O)c4c(c3C2=O)C2=NC3(CCN(CC(C)C)CC3)NC2=C(NC(=O)/C(C)=C\C=C\[C@H](C)[C@H](O)[C@@H](C)[C@@H](O)[C@@H](C)[C@H](OC(C)=O)[C@@H]1C)C4=O | 16.2

Series 2 — concentration: 1 µM
SMILES: COc1ccc2c(c1)O[C@H](c1ccc(OC)c(OC)c1)C[C@@H]2NC(=O)C1(c2ccc3c(c2)OC(F)(F)O3)CC1
target | test | remaining binding
RET (Homo sapiens, UniProt P07949) | cell-free assay, competition with immobilised ligand | 100%
LIM domain kinase 1 (LIMK1, Homo sapiens, UniProt P53667) | cell-free assay, competition with immobilised ligand | 98%
CAMK1D (Homo sapiens, UniProt Q8IU85) | cell-free assay, competition with immobilised ligand | 100%
RIOK3 (Homo sapiens, UniProt O14730) | cell-free assay, competition with immobilised ligand | 100%
CDC42BPG (Homo sapiens, UniProt Q6DT37) | competition binding | 89%
ANKK1 (Homo sapiens, UniProt Q8NFD2) | cell-free assay, competition with immobilised ligand | 100%
CDK13 (Homo sapiens, UniProt Q14004) | cell-free assay, competition with immobilised ligand | 100%
TRPM6 (Homo sapiens, UniProt Q9BX84) | cell-free assay, competition with immobilised ligand | 84%
Tyrosine-protein kinase ABL1, phosphorylated (ABL1, Homo sapiens, UniProt P00519, Q252H) | cell-free assay, competition with immobilised ligand | 100%
NEK4 (Homo sapiens, UniProt P51957) | cell-free assay, competition with immobilised ligand | 86%
FER (Homo sapiens, UniProt P16591) | cell-free assay, competition with immobilised ligand | 100%
GSK3B (Homo sapiens, UniProt P49841) | cell-free assay, competition with immobilised ligand | 100%
MAP3K11 (Homo sapiens, UniProt Q16584) | cell-free assay, competition with immobilised ligand | 100%
FGFR3 (Homo sapiens, UniProt P22607, G697C) | cell-free assay, competition with immobilised ligand | 93%
Ribosomal protein S6 kinase alpha-2, C-terminal kinase domain (RPS6KA2, Homo sapiens, UniProt Q15349) | cell-free assay, competition with immobilised ligand | 95%

Series 3 — observed: enzyme activity; action: inhibitor; concentration: 0.5 µM; baseline: control
SMILES: CN([C@@H](Cc1ccc(OS(=O)(=O)c2cccc3cnccc23)cc1)C(=O)N1CCN(c2ccccc2)CC1)S(=O)(=O)c1cccc2cnccc12
target | remaining activity
FLT1 (Homo sapiens, UniProt P17948) | 86.5%
CAMK1 (Homo sapiens, UniProt Q14012) | 105%
CSNK1E (Homo sapiens, UniProt P49674) | 103%
EPHA6 (Homo sapiens, UniProt Q9UF33) | 94.9%
TYRO3 (Homo sapiens, UniProt Q06418) | 101%
MUSK (Homo sapiens, UniProt O15146) | 92.7%
SIK2 (Homo sapiens, UniProt Q9H0K1) | 108%
CSNK1D (Homo sapiens, UniProt P48730) | 109%
SGK2 (Homo sapiens, UniProt Q9HBY8) | 100%
PRKCZ (Homo sapiens, UniProt Q05513) | 101%
IGF1R (Homo sapiens, UniProt P08069) | 105%
CLK1 (Homo sapiens, UniProt P49759) | 97.3%
RPS6KA3 (Homo sapiens, UniProt P51812) | 98.6%

Series 4 — host: human; sample: microsomes or S9; concentration: 2 µM; time: 0.5 h
SMILES | remaining compound [%]
CCN1CCN(CCCNC(=O)c2oc3ccc4c(c3c2C)C(O)CC(C)(C)O4)CC1 (stereo not shown) | > 99.9
COc1ccc(-c2noc(Cn3cnc4c(cnn4-c4ccc(Cl)cc4)c3=O)n2)cc1 | 33.4
Oc1cc2c(cc1C(c1ccc(Br)cc1)N1CCOCC1)OCO2 (stereo not shown) | 74.7
O=C(O)c1csc(CNC(=O)c2cc(N3CCNC3=O)ccc2Cl)n1 | > 100
O=C(c1ccc(OC(c2ccc(Cl)cc2)c2ccccc2Cl)c(F)c1)N1CC(O)C(O)C1 (stereo not shown) | 69.3
Cc1ccc(-c2n[nH]c3c2C(c2cccnc2)N(c2ccc(Cl)cc2)C3=O)cc1 (stereo not shown) | 28.4
COc1ccc(CCc2nc(C)c(O)c(-c3nnn[nH]3)c2C(=O)O)cc1 | 45
CC(C)c1noc(CCCn2ccc(-c3ccc(C#N)cc3)n2)n1 | 34.6

Repeated from above (series 4):
SMILES | remaining compound [%]
O=C(O)c1csc(CNC(=O)c2cc(N3CCNC3=O)ccc2Cl)n1 | > 100
CCN1CCN(CCCNC(=O)c2oc3ccc4c(c3c2C)C(O)CC(C)(C)O4)CC1 (stereo not shown) | > 99.9
COc1ccc(CCc2nc(C)c(O)c(-c3nnn[nH]3)c2C(=O)O)cc1 | 45
